{"data": "Measured values from different studies", "B1": "dksA (Escherichia coli, UniProt P0ABS1); sequence looked up; chain MQEGQNRKTSSLSILAIAGVEPYQEKPGEEYMNEAQLAHFRRILEAWRNQLRDEVDRTVTHMQDEAANFPDPVDRAAQEEEFSLELRNRDRERKLIKKIEKTLKKVEDEDFGYCESCGVEIGIRRLEARPTADLCIDCKTLAEIREKQMAG", "B2": "acrA (Escherichia coli, UniProt P0AE06); N-terminal lipid at C25; chain CDDKQAQQGGQQMPAVGVVTVKTEPLQITTELPGRTSAYRIAEVRPQVSGIILKRNFKEGSDIEAGVSLYQIDPATYQATYDSAKGDLAKAQAAANIAQLTVNRYQKLLGTQYISKQEYDQALADAQQANAAVTAAKAAVETARINLAYTKVTSPISGRIGKSNVTEGALVQNGQATALATVQQLDPIYVDVTQSSNDFLRLKQELANGTLKQENGKAKVSLITSDGIKFPQDGTLEFSDVTVDQTTGSITLRAIFPNPDHTLLPGMFVRARLEEGLNPNAILVPQQGVTRTPRGDATVLVVGADDKVETRPIVASQAIGDKWLVTEGLKAGDRVVISGLQKVRPGVQVKAQEVTADNNQQAASGAQPEQSKS", "note": "Compare with care: the assays were run in different laboratories. Numbers after ± are the reported error. Positions of bridges follow the written chain, without caps; N, C: chain ends. Square brackets hold non-standard residues; d marks the D form. Ends that are not written are not given here. * marks the point of attachment.", "sequence of UniProt P23946 (whole entry, looked up)": "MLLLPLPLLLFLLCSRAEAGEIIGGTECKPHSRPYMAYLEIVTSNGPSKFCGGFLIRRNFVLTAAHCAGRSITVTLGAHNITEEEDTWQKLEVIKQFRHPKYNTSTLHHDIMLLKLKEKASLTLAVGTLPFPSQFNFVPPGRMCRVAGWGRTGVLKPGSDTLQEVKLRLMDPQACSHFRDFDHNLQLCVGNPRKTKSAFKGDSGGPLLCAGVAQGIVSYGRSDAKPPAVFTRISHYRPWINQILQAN", "sequence of UniProt P29590 (whole entry, unmodified, looked up)": "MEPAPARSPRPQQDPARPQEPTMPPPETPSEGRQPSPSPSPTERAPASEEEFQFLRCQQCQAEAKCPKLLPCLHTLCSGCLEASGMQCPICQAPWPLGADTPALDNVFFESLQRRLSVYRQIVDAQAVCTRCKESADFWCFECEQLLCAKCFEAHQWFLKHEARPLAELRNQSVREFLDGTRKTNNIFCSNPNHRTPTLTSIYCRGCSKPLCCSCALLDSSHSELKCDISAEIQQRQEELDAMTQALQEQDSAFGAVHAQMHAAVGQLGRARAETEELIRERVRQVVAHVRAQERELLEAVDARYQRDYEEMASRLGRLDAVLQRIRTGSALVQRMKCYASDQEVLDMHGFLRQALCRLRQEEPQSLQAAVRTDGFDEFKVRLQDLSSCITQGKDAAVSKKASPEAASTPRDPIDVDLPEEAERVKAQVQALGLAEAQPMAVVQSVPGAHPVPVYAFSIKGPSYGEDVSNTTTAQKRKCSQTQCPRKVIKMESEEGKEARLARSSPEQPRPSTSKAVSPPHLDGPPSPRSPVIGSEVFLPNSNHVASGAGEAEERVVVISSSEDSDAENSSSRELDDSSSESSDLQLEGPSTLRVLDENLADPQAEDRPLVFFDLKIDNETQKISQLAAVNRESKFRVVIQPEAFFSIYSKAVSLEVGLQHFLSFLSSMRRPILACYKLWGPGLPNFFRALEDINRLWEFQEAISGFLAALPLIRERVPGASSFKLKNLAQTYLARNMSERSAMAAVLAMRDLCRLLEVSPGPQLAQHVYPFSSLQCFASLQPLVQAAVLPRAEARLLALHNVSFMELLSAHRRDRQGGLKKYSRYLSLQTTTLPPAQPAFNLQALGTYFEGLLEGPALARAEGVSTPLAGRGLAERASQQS", "sequence of UniProt P31224 (whole entry, unmodified, looked up)": "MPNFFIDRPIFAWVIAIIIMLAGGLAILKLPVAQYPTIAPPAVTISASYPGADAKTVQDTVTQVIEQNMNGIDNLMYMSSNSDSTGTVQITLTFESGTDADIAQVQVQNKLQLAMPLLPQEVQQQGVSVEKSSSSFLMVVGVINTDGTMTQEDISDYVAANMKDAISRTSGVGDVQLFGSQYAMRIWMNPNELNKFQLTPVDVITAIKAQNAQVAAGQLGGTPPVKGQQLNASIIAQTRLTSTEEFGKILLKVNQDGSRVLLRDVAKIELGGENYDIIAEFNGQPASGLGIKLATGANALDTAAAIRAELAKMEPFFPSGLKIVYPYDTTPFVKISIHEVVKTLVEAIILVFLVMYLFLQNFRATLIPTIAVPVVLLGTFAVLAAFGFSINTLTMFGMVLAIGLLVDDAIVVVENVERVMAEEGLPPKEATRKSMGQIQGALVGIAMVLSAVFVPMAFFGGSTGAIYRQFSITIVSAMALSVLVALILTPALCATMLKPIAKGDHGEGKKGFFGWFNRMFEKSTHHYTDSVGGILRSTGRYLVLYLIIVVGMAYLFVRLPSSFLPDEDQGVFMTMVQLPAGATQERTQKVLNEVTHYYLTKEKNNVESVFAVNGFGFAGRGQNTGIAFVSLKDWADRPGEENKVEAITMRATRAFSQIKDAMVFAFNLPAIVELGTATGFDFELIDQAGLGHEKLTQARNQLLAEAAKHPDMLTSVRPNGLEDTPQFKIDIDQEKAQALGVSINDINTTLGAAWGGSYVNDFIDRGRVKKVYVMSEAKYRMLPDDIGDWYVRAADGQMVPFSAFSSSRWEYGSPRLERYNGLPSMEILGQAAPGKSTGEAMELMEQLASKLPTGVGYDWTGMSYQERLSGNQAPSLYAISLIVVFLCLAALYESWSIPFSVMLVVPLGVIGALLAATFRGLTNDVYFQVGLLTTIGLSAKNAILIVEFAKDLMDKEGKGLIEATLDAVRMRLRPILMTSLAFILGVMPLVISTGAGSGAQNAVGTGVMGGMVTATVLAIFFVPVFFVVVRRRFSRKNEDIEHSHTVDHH", "sequence of UniProt P11142 (whole entry, looked up)": "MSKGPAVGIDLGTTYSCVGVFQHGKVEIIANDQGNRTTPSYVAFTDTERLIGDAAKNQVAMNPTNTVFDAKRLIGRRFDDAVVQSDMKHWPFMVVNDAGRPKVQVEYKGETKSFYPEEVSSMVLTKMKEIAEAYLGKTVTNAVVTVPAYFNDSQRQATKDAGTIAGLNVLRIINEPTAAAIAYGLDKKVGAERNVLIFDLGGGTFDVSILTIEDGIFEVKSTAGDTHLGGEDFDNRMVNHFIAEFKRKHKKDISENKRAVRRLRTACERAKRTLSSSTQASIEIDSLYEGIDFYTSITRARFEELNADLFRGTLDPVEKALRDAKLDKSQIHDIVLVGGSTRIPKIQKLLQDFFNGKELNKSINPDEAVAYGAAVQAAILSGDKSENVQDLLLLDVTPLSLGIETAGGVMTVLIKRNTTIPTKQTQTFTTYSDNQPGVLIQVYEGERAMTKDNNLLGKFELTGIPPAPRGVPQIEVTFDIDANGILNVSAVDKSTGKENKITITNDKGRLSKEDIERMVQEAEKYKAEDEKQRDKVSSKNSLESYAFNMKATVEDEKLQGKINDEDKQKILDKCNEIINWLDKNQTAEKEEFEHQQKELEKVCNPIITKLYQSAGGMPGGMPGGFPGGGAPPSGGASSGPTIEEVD", "sequence of UniProt P56536 (whole entry, looked up)": "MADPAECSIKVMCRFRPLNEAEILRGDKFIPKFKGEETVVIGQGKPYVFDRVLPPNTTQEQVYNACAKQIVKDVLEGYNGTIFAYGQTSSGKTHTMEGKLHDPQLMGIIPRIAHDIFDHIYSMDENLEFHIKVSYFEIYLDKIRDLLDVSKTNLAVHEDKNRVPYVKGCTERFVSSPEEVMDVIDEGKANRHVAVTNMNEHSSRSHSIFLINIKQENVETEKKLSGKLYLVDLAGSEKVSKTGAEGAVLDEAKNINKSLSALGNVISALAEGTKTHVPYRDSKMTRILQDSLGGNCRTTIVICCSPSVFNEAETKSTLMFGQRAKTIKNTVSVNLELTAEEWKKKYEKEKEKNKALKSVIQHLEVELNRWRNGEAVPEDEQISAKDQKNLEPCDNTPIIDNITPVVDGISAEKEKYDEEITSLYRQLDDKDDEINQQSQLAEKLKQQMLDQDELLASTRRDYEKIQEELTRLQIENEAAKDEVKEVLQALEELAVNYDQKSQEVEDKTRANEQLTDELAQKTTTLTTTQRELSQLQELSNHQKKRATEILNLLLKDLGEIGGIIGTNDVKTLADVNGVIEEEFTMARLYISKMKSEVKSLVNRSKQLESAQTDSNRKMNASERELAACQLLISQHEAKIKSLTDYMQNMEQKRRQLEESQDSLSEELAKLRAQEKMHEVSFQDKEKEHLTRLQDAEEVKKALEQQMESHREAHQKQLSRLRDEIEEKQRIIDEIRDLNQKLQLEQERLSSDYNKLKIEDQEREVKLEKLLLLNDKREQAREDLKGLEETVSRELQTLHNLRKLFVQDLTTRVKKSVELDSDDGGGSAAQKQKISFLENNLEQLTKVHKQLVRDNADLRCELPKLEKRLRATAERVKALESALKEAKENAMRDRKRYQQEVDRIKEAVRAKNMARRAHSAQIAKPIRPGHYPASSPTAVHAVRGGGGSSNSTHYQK", "sequence of UniProt Q86WV6 (whole entry, looked up)": "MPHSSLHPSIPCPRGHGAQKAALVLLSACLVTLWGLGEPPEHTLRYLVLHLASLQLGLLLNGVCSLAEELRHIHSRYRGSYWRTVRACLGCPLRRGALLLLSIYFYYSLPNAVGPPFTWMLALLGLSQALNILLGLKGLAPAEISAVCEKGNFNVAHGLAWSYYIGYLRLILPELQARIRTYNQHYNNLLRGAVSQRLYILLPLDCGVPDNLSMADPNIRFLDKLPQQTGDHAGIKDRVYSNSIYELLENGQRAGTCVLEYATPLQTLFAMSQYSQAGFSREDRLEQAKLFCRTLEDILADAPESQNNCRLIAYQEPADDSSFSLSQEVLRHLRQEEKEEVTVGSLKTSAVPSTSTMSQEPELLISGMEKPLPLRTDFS", "sequence of UniProt P49798 (whole entry, unmodified, looked up)": "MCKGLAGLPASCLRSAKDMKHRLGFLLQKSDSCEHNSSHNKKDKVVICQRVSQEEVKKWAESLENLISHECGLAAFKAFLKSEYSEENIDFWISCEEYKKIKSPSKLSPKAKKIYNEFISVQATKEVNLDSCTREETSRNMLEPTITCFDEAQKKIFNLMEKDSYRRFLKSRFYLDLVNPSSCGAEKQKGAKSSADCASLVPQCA", "sequence of UniProt Q3KNA1 (whole entry, looked up)": "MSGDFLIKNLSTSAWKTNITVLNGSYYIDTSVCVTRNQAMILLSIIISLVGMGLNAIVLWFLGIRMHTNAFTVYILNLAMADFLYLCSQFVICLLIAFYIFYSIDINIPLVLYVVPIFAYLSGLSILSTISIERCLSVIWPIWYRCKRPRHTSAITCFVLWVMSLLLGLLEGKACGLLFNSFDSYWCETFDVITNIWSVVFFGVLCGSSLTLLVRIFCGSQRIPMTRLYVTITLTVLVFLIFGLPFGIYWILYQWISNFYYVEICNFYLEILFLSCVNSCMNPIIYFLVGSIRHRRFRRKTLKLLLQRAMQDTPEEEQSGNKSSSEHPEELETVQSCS", "sequence of UniProt P01317 (whole entry, looked up)": "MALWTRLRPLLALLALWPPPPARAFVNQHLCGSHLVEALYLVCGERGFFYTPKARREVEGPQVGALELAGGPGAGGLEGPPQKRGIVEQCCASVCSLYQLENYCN"}
{"Molecule": "B1 (dksA)", "target or system": "rpoB β subunit 1-1342 (Escherichia coli, UniProt P0A8V2)", "assay": "crystal structure", "conditions": "without ppGpp", "measurement": "binding", "result": "binds"}
{"Molecule": "tubulin alpha/beta microtubules, taxol-stabilized, rhodamine label", "target or system": "KIF5C 1-407 (Rattus norvegicus, UniProt P56536)", "assay": "in vitro motility assay", "conditions": "22 °C, added: MgATP 1 mM", "measurement": "gliding speed", "result": "666 nm/s"}
{"Molecule": "B2 (acrA)", "target or system": "acrB C493S/C887S/S1043C (Escherichia coli, UniProt P31224)", "assay": "SPR", "conditions": "two-state model, dissociation", "measurement": "k-1", "result": "0.021 s⁻¹"}
{"Molecule": "RmS-3, glycosylated (Rhipicephalus microplus)", "target or system": "CMA1 (Homo sapiens, UniProt P23946)", "assay": "chromogenic substrate hydrolysis, inhibitor", "conditions": "1 µM", "measurement": "protease inhibition", "result": "23.4%"}
{"Molecule": "protein (Streptomyces exfoliatus, UniProt O87916)", "target or system": "PBP2a residues 41-end (Staphylococcus aureus)", "assay": "SPR", "measurement": "Kd", "result": "1500 nM"}
{"Molecule": "TBK1 fragment L8A (Homo sapiens)", "target or system": "STING1 (Homo sapiens, UniProt Q86WV6)", "assay": "IFN-β luciferase reporter", "system": "TBK1 KO HEK293T", "conditions": "added: cGAMP", "scale": "baseline: wild-type TBK1, higher = more reduction", "measurement": "reduction of IFN-β reporter", "result": "> 60%"}
{"Molecule": "RmS-17, glycosylated (Rhipicephalus microplus)", "target or system": "F12 factor XIIa (Homo sapiens)", "assay": "chromogenic substrate hydrolysis, inhibitor", "conditions": "1 µM", "measurement": "protease inhibition", "result": "< 20%"}
{"Molecule": "{FITC}-GFID[pS]D[pT]DVEEE-NH2 (peptide; N-terminal FITC, pS5, pT7, C-terminal amide; FITC = O=C1OC2(c3ccc(O)cc3Oc3cc(O)ccc32)c2ccc(NC(=S)*)cc21; pS = N[C@@H](COP(=O)(O)O)C(=O)O; pT = C[C@@H](OP(=O)(O)O)[C@H](N)C(=O)O)", "target or system": "TOPBP1 641-746 R681E/K682E (Homo sapiens, UniProt Q92547)", "assay": "fluorescence polarisation", "system": "peptide", "conditions": "pH 7.5, NaCl 150 mM", "measurement": "Kd", "result": "170000 ± 10000 nM"}
{"Molecule": "H-YWCKGLCK-NH2 (designed peptide; disulfide 3-7; SMILES CC(C)C[C@@H]1NC(=O)CNC(=O)[C@H](CCCCN)NC(=O)[C@@H](NC(=O)[C@H](Cc2c[nH]c3ccccc23)NC(=O)[C@@H](N)Cc2ccc(O)cc2)CSSC[C@@H](C(=O)N[C@@H](CCCCN)C(N)=O)NC1=O; free N-terminus/C-amide/cyclic disulfide Cys3-Cys7)", "target or system": "RGS4 residues 52-end 52-205, Alexa Fluor 532 label (Homo sapiens, UniProt P49798)", "assay": "flow cytometry", "system": "peptide", "conditions": "room temperature", "measurement": "binding", "result": "binds"}
{"Molecule": "SGAGEAEERVVVIDDDEDDDAENSSSRY (PML 547-573 S560D/S561D/S562D/S565D (Homo sapiens, UniProt P29590))", "target or system": "SUMO2 14-93 C48A (Homo sapiens, UniProt P61956)", "assay": "ITC", "system": "peptide", "conditions": "pH 7.4, 25 °C", "measurement": "Kd", "result": "2900 ± 800 nM"}
{"Molecule": "RmS-6, glycosylated (Rhipicephalus microplus)", "target or system": "F12 factor XIIa (Homo sapiens)", "assay": "chromogenic substrate hydrolysis, inhibitor", "conditions": "1 µM", "measurement": "protease inhibition", "result": "< 20%"}
{"Molecule": "Ac-NRLLLTG (NRLLLTG; N-acetyl)", "target or system": "HSPA8 395-509 (Homo sapiens, UniProt P11142)", "assay": "competition with tracer, fluorescence polarisation", "system": "peptide", "conditions": "added: FAM-Cdk4-2 tracer", "measurement": "Ki", "result": "560 ± 50 nM"}
{"Molecule": "gag peptide M6F/I8Y (SHIV)", "target or system": "Mane-A1*082:01 (Macaca nemestrina)", "assay": "competition with radiolabeled ligand, competitor, radioligand binding", "conditions": "added: radiolabeled peptide", "measurement": "IC50", "result": "8.2 nM"}
{"Molecule": "VQIVYK", "target or system": "Insulin, B chain (INS, Bos taurus, UniProt P01317)", "assay": "insulin aggregation", "conditions": "pH 7, 37 °C, added: DTT", "measurement": "IC50", "result": "~50 µg/mL"}
{"Molecule": "EMRLSKFFRDFILQRKK (comC mature CSP-1 (Streptococcus pneumoniae, UniProt P60242))", "target or system": "Mrgprb2 (Mus musculus, UniProt Q3KNA1)", "assay": "MST", "system": "peptide, membranes", "measurement": "Kd", "result": "70100 ± 3200 nM"}
{"Molecule": "QATFMVFQALAQYQKDAP (C3 1270-1287 (Homo sapiens); N- and C-terminal capped)", "target or system": "HLA-DRA/HLA-DRB1*03:01 (Homo sapiens)", "assay": "competition with ligand, ELISA", "system": "peptide", "measurement": "IC50", "result": "77600 nM"}
{"note": "Excerpt of the above:"}
{"Molecule": "QATFMVFQALAQYQKDAP (C3 1270-1287 (Homo sapiens); N- and C-terminal capped)", "target or system": "HLA-DRA/HLA-DRB1*03:01 (Homo sapiens)", "assay": "competition with ligand, ELISA", "system": "peptide", "measurement": "IC50", "result": "77600 nM"}
{"Molecule": "Ac-NRLLLTG (NRLLLTG; N-acetyl)", "target or system": "HSPA8 395-509 (Homo sapiens, UniProt P11142)", "assay": "competition with tracer, fluorescence polarisation", "system": "peptide", "conditions": "added: FAM-Cdk4-2 tracer", "measurement": "Ki", "result": "560 ± 50 nM"}
{"Molecule": "RmS-17, glycosylated (Rhipicephalus microplus)", "target or system": "F12 factor XIIa (Homo sapiens)", "assay": "chromogenic substrate hydrolysis, inhibitor", "conditions": "1 µM", "measurement": "protease inhibition", "result": "< 20%"}
